Measurements pooled from the literature.
Parts stem from different laboratories: compare values within a part only.

Set 1
Target: Fragile X messenger ribonucleoprotein 1, C-terminal low-complexity region (Fmr1, Mus musculus, UniProt P35922)
Method: RNA Bind-n-Seq
Molecule type: RNA
Sample: in vitro
Concentration: 200 nM
Notes: whole 134-nt RNA, ends assumed
Added: 150 mM KCl
Reference: input library
Reading: higher = stronger binding
Measurement: log2 enrichment
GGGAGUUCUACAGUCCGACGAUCUCCUGUGCUACACAUCGUAUGUACCGAAUCAAAUUUUUAAAUUUUUUUAAAUUUUUAAAAAAGUAUUAUGUUACGCCGUUCGGAUCUGCAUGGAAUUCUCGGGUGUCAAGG: -0.594
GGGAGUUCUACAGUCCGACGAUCCCUCAAGUCCUGUGCUACACAUCGUAUGUACCGAAUCGGAGGUUUUUGGAGGAAAGUAUUAUGUUACGCCGUUCGGAUCUGCACUUCCAGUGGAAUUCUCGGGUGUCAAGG: 0.248
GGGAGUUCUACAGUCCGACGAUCGUCCUGUGCUACACAUCGUAUGUACCGAAUCAAACCCCCCCAAAUUUUUAAAUUUAAAAAAGUAUUAUGUUACGCCGUUCGGAUCUGCACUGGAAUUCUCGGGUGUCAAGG: 0.37
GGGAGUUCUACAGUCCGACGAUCCCUGUGCUACACAUCGUAUGUACCGAAUCGGGGCCCCCCGGGGCCCCCCGGCCCCCCGGGAAAGUAUUAUGUUACGCCGUUCGGAUCUGCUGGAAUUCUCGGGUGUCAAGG: -0.953
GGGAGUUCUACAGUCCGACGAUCCUCAAGUCCUGUGCUACACAUCGUAUGUACCGAAUCGGGGUGGGGUGGGGUGGGAAAGUAUUAUGUUACGCCGUUCGGAUCUGCACUUCCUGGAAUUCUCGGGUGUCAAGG: 0.966
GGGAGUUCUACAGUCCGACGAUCUCCUGCCAACCUCUCUUAAUGCUCUGAGAGCCUCUGGUGUUGACAUAGAAGAGGAAACGGAGAAGAACCUGGAAAAGGUACAGACUAUCAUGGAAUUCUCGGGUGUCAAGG: -1.45
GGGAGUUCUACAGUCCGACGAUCCAAGUCCUGUGCUACACAUCGUAUGUACCGAAUCGGUUUUUGGAAAAAAAGGUGGAAAGUAUUAUGUUACGCCGUUCGGAUCUGCACUUCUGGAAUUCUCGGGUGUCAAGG: -0.534
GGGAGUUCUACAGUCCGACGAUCCCUCAAGUCCUGUGCUACACAUCGUAUGUACCGAAUCGGCCGGCCGGGCCGGAAAGUAUUAUGUUACGCCGUUCGGAUCUGCACUUCCAGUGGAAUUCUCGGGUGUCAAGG: -0.146
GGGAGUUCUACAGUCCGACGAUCUGUGAAAGAAAACCGAAGUUUUAAAUGACUUCUCAUGGUUAUUUUUUUUCCUUUCUCUUGCAGGACAUUGGGGACACAUUGAGCAGGUAUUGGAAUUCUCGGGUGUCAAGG: 0.279

Set 2
Target: Histone acetyltransferase KAT6A, winged helix 2, GST fusion (KAT6A, Homo sapiens, UniProt Q92794, residues 85-181)
Method: protein binding microarray
Molecule type: double-stranded DNA, one strand shown
Sample: in vitro
Concentration: not given
Notes: 8-mer, flanks averaged, mean of 2 arrays, mostly near background
Reference: not given
Reading: higher = stronger binding
Measurement: E-score
Construct (chain): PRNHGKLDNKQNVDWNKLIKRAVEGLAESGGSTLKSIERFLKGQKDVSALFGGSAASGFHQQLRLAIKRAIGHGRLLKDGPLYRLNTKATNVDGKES
ATTGCTCA: 0.0882
GGCAACAC: 0.0679
GGGTATAC: -0.138
ACAGATCA: -0.174
AATGAATA: -0.194
CAGTATGA: -0.0488
ACTGCAGT: -0.0317
ACCACCTG: 0.0193
GCACTCAC: -0.0346
AAGACTGC: -0.18
AATTAGCT: -0.064
AGGCATAA: -0.0428
AGCCCAAG: -0.0423
ATGCACAA: -0.0503
CAGCATCG: 0.0133
AAGTCTGA: -0.283
AAAACTCT: 0.104
ATTACCTA: -0.15
CGCGTGTA: 0.0776
ATCGTTTG: 0.0727
CGATATCA: 0.0659
ACCGCCCT: -0.0818
AAACTCCG: 0.123
CGATAGGC: -0.0871
CGACGCCC: 0.0878

Set 3
Target: Interferon regulatory factor 7, full length, phosphomimetic (IRF7, Homo sapiens, UniProt Q92985, residues 1-503, S471D/S472D/S475D/S476D/S477D/S483D/S484D/S487D)
Chain of UniProt Q92985 (whole entry, unmodified, looked up): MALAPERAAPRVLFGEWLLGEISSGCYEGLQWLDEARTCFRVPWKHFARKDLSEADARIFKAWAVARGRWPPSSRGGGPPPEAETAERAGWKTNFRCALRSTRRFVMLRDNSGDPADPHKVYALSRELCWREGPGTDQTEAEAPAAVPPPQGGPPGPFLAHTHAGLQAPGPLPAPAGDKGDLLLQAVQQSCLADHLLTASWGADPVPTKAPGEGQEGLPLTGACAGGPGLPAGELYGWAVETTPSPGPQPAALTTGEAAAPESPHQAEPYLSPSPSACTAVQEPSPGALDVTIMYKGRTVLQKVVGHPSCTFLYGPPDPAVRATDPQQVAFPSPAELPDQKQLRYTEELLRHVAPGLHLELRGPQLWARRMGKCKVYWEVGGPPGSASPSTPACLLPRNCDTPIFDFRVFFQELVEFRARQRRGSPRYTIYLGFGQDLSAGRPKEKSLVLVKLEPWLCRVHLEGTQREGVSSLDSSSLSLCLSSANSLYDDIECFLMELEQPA
Method: protein-binding microarray
Molecule type: double-stranded DNA, one strand shown
Sample: in vitro
Concentration: 2200 nM top
Notes: 60-bp whole probe
Added: salmon DNA 0.4 mg/ml
Reference: random background probes
Reading: higher = stronger binding
Measurement: fitted relative affinity
Shared flanks, not repeated: GCCTAGCAC … GTCTTGATTCGCTTGACGCTGCTG
AAATGTTTTGTTTTTCATTAGTGCTAG: 2.43 z-score
GACGGTATCGATTTTCGGGACGTGCTA: 2.74 z-score
GACGAACTGGGGCCTGGAGACGTGCTA: -0.494 z-score
TCATTTTTTTTATTTATACTGTGCTAG: 1.53 z-score
TTGGGACTGGACTATCGGTTAGTGCTA: -0.492 z-score
TCATGGTTGAACATGAAACTGTGCTAG: 0.314 z-score
TTAGATCTCAGACCGGATTAGTGCTAG: -0.23 z-score
ACCACTTTCCATTTCTGTTTGTGCTAG: 10.3 z-score
TCATATTAAAATTTCATACTGTGCTAG: 0.432 z-score
AGTGATAACTTTTTTTTTTCGTGCTAG: 0.851 z-score
GACGGTCTCCTACTGCTGACGTGCTAG: 0.575 z-score
TTAGGTCTCGGACTGGGTTTGTGCTAG: -0.404 z-score
GACGGTTTCAACTTTCGGGACGTGCTA: 4.73 z-score
TGAGATATCAGTATCGATTAGTGCTAG: -0.181 z-score
CAGAGTCTAGCCATTGTGGGTGTGCTA: -0.561 z-score
TTAGATTTCAATCTCGATTAGTGCTAG: 0.183 z-score
TTAAATTTCGGGTATCGATTAGTGCTA: 3.07 z-score
TTAGATTTCAGTTTGGATTAGTGCTAG: 2.16 z-score
TTAGGTCTAGGTCTCGGTTAGTGCTAG: 0.257 z-score

Set 4
Target: RNA binding protein fox-1 homolog 2, RRM domain, GST-SBP tag (RBFOX2, Homo sapiens, UniProt O43251-10, residues 100-194)
Method: RNA Bind-n-Seq
Molecule type: RNA
Sample: in vitro
Concentration: 365 nM
Notes: natural RNA segment, single round, ends assumed
Reference: no-protein control
Reading: higher = stronger binding
Measurement: RBNS enrichment (R)
Residues (chain): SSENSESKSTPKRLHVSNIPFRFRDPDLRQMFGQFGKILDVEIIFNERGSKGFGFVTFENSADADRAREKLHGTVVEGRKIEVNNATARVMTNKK
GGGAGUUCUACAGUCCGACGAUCCGAGGCAGCUGACGAGGCAGCUGGCCCAGUCUUGGGAGUCUGCUCAGGACAGUGGUGGAGCUGGGUCUUGAACCCCAGUCUGCACCUAAAAAACUAAAGGAAAUGGAUUUUGGAAUUCUCGGGUGCCAA: 0.371
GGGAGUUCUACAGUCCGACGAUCACUCAUGCUGUCUUGGACUCACUGACCCAGCUGCAGGGUUUUGUUACCCUGCCAGUCCCCUGCCUCACUCCACCAUGAAGGUCUCUGCUUUCCUGUGACUUGAUUGGGAUUGGAAUUCUCGGGUGCCAA: 0.265
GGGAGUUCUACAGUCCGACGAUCUCUUAGUUGGUAUCAACCAAAUGGAGUGACUUAGUGUACAUGAAAGCGUAAAGAGGAUGUGUGGCAUUUUCACUUUUGGCUUGUAAAGUACAGACUUUUUUUUUUUUUUAUGGAAUUCUCGGGUGCCAA: 0.638
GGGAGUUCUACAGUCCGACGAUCAUCUUCUGUGAGGUGGGAUUUUUGUGUUCCUCACACCCAUGUAAUUAUUCUUAGAAUUGAGAUUGCUACACGGAGCAGUCCUUGACGAUCGUGUUUCUGACGUUUCUCUUUGGAAUUCUCGGGUGCCAA: 0.256
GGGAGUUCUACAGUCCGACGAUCCCCAAGGGGCUGCAUGACCCUGGGGUGCCCCACACAGUUCAGCCCUGCCUGGCAGGGACGCCAGUACUACUGUAACUGCAGCAGGAGCUGCCCGGCCUGCCUUCUGGCCCUGGAAUUCUCGGGUGCCAA: 2.42
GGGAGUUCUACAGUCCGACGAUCCAGCUUUCAAAUCAUUGGGGGGAGAAAAAGGAUGUCUUUCAGGAUUAUUUUAAUUAAUUUUUUUCAUAAUUGAGACAGAACUGUUUGUUAUGUACCAUAAUGCUAAAUAAUGGAAUUCUCGGGUGCCAA: 0.767
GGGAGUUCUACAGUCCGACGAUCCCUUGUCUGGUAAUUGUGGAUUAAUGUCAGCGUUAAUCAGCCCCUCAAAGGGAGAGAAAAGCUGGGCUUUUCCCUUGCUGUACCUCAUUCAGCUUUUGAUUUCCAUGGCCUGGAAUUCUCGGGUGCCAA: 0.235
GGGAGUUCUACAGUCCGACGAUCAAUUCACCUAGCAUAGGCUCUUUGAAAUGUCCUCUGUUUGAUAAAAAACAAUCCUGGGUACGUAUGUUGGCUGGAAAACCACAAUGGACCCUGCCACUGCUUCUUGCCCUUGGAAUUCUCGGGUGCCAA: 0.307

Some of these lines once more (set 2):
AAGTCTGA: -0.283
GGCAACAC: 0.0679
CGATAGGC: -0.0871
ATTGCTCA: 0.0882
CGCGTGTA: 0.0776
ATGCACAA: -0.0503
